Published values collected from several papers.
Compare with care: the assays were run in different laboratories. Numbers after ± are the reported error.

| Compound | method | medium | time | pH | temperature | notes | solubility |
| --- | --- | --- | --- | --- | --- | --- | --- |
| NC(=O)c1cc(-c2ccsc2)ccc1OCCc1cccc(F)c1 | – | PBS | 30 (unit not given) | pH 7.4 | – | – | < 12 µM |
| COc1ccc(-c2cccc(Nc3cc(=O)n(O)c(=O)n3C)c2)cc1 | – | aqueous buffer | 2 (unit not given) | pH 7.2 | – | – | 32.9 ± 0.92 µM |
| COc1cccc(C2(C(=O)N3CCC4(CC3)CC(CNS(=O)(=O)N(C)C)CCO4)CCCC2)c1 (stereo not shown) | – | – | – | pH 7.4 | – | – | 170 µM |
| C#Cc1ccc2c(c1)C(c1ccccn1)=NCc1c(-c3cnco3)ncn1-2 | – | dichloromethane | 24 h | – | 25 °C | thermodynamic equilibrium | 4660 µg/mL |
| COc1ccc(-c2oc3cc(OC)cc(OC)c3c(=O)c2OC)cc1 | HPLC | ethanol:butylene glycol 100:0 | – | – | – | – | 6250 ± 69 ppm |
| COc1cc(Nc2ncc(F)c(Nc3ccc4c(n3)NC(=O)C(C)(C)O4)n2)cc(OC)c1OC | – | PBS | 3 h | pH 7.4 | – | 0.1% DMSO | 0.8 µM |
| COC1=CC(c2ccc[nH]2)=N/C1=C\c1[nH]c(Cc2ccc(OC)cc2)cc1Cc1ccc(OC)cc1.Cl | – | potassium phosphate buffer | 1.5 h | pH 7.4 | room temperature | 100 mM buffer | < 3.13 µM |
| O=c1ccn([C@@H]2O[C@H](CO)[C@@H](O)[C@H]2O)c(=S)[nH]1 | – | aqueous buffer | 4 (unit not given) | pH 6.8 | 37 °C | – | > 100 µM |
| NC(=O)c1cccc2c1O/C(=C\c1ccc(C(=O)NCCc3nc4ccccc4[nH]3)s1)C2=O | saturation solubility | aqueous buffer | 24 h | pH 7.2 | 25 °C | – | > 60 µg/mL |
| COC1=CC(c2ccc[nH]2)=N/C1=C\c1cc(-c2ccc(Cl)cc2)c(C)[nH]1.Cl | – | potassium phosphate buffer | 1.5 h | pH 7.4 | room temperature | 100 mM buffer | < 3.13 µM |
| Cc1cccc(C2(C(=O)N3CCC4(CC3)CC(CNS(=O)(=O)N(C)C)CCO4)CCCC2)c1 (stereo not shown) | – | – | – | pH 7.4 | – | – | 140 µM |
| FC(F)(F)[C@@]1(c2ccccc2)COC[C@@H](c2cccnc2)N1 | shake-flask, LC-HRMS | aqueous buffer | 16 h | pH 6.8 | – | – | < 4 µM |
| COC1=CC(c2ccc[nH]2)=N/C1=C\c1cc(Cc2ccc(C(F)(F)F)cc2)c(C)[nH]1.Cl | – | potassium phosphate buffer | 1.5 h | pH 7.4 | room temperature | 100 mM buffer | 20.9 µM |
| Cn1c(=O)ccc2ccc(F)c(CCNC[C@H]3CN(c4ccc5c(n4)NC(=O)CO5)C(=O)O3)c21 | – | aqueous buffer | – | – | – | – | 151 µM |
| N#Cc1ccc([C@@H]2COC[C@H](c3cccnc3)N2)cc1 | shake-flask, LC-HRMS | aqueous buffer | 16 h | pH 6.8 | – | – | > 750 µM |
| Cc1nonc1Cn1nnc2c(N3CC[C@H](O)C3)nc(C(C)(C)C)nc21 | LYSA | – | – | – | – | – | 44 ± 2 µg/mL |
| CSCC[C@H](NC(=O)[C@H](CCC(=O)O)NC(=O)[C@@H]1CCCN1C(=O)[C@@H](NC(=O)[C@@H]1CCCN1)[C@@H](C)O)C(=O)N[C@@H](CCCNC(=N)N)C(=O)N[C@@H](CCC(=O)O)C(=O)N[C@@H](CCCCN)C(=O)N[C@@H](CC(C)C)C(=O)N[C@H]1CSSC[C@@H]2NC(=O)[C@@H](NC(=O)[C@H](Cc3ccc(O)cc3)NC(=O)[C@H](CCCNC(=N)N)NC(=O)[C@H](C)NC(=O)[C@@H]3CCCN3C(=O)[C@H](CC(N)=O)NC(=O)[C@@H](NC(=O)[C@H](C)NC(=O)[C@H](C)NC(=O)[C@H](C)N)[C@@H](C)O)CSSC[C@H](NC(=O)CNC(=O)[C@H](CO)NC(=O)[C@H](CC(C)C)NC2=O)C(=O)N[C@@H]([C@@H](C)O)C(=O)N[C@@H](CCC(N)=O)C(=O)N[C@@H](CCC(N)=O)C(=O)N[C@@H](CC(=O)O)C(=O)N[C@@H](CC(C)C)C(=O)N[C@@H](CC(C)C)C(=O)N[C@@H]([C@@H](C)O)C(=O)N[C@@H](CC(C)C)C(=O)N[C@H](C(=O)N2CCC[C@H]2C(=O)N[C@@H](Cc2ccc(O)cc2)C(=O)O)CSSC[C@@H](C(=O)NCC(=O)NCC(=O)N2CCC[C@H]2C(=O)N[C@@H](CCCNC(=N)N)C(=O)N[C@@H](Cc2c[nH]c3ccccc23)C(=O)N[C@@H](CO)C(=O)N[C@H](C(=O)N[C@@H](CCC(=O)O)C(=O)N[C@@H](C)C(=O)O)[C@@H](C)O)NC(=O)[C@H](C(C)C)NC(=O)[C@H](CCCNC(=N)N)NC(=O)[C@H](C(C)C)NC(=O)[C@H](CC(C)C)NC(=O)[C@H](C)NC(=O)[C@H](CCCNC(=N)N)NC(=O)[C@H](C(C)C)NC(=O)[C@H](Cc2ccccc2)NC(=O)[C@H](Cc2c[nH]cn2)NC(=O)[C@H](Cc2c[nH]cn2)NC(=O)CNC1=O | – | water | – | pH 5 | – | – | > 1200 µM |
| O=C(NCCCNc1nc(Nc2cccc(NC(=O)N3CCCC3)c2)ncc1I)c1cccs1 | – | Peceol | 24 h | – | 37 °C | – | 690 ± 150 µg/mL |
| CC[C@H](C)[C@H](NC(=O)[C@H](CC(=O)O)NC(=O)[C@H](CCCCN)NC(=O)[C@H](CC(C)C)NC(=O)[C@H](CC(N)=O)NC(=O)[C@@H](NC(=O)[C@H](Cc1ccc(O)cc1)NC(=O)[C@H](CO)NC(=O)[C@H](CCC(N)=O)NC(=O)[C@H](CCC(=O)O)NC(=O)[C@H](CC(C)C)NC(=O)[C@H](CCCCN)NC(=O)[C@H](CCCCN)NC(=O)[C@@H](NC(=O)[C@H](C)NC(=O)[C@H](CCC(=O)O)NC(=O)[C@H](CCC(=O)O)NC(=O)[C@H](CC(C)C)NC(=O)[C@H](CCCCN)NC(=O)[C@H](CCCCN)NC(=O)[C@H](CCSC)NC(=O)[C@H](CCC(=O)O)NC(=O)[C@H](CC(=O)O)NC(=O)[C@H](CCC(N)=O)NC(=O)[C@H](CC(C)C)NC(=O)[C@H](CC(=O)O)NC(=O)[C@H](CC(C)C)NC(=O)[C@H](Cc1ccccc1)NC(=O)[C@@H](NC(=O)[C@@H](NC(=O)[C@H](CC(N)=O)NC(=O)[C@@H](NC(=O)[C@H](Cc1ccc(O)cc1)NC(=O)[C@H](CC(=O)O)NC(=O)[C@H](CC(C)C)NC(=O)[C@@H](N)CO)[C@@H](C)CC)C(C)C)[C@@H](C)O)[C@@H](C)CC)[C@@H](C)CC)C(=O)O | – | PBS | – | pH 7.2 | – | – | 219 ± 14 µM |
| CC1(C(=O)N2CCC3(CC2)CC(CNS(C)(=O)=O)CCO3)CCCC1 (stereo not shown) | – | – | – | pH 7.4 | – | – | 110 µM |
| CC1(C)C(=O)N(c2ccc(C#N)c(C(F)(F)F)c2)C(=S)N1Cc1ccc(-c2c[nH]nn2)cc1 | – | water | – | – | – | 10% DMSO | 300 µg/mL |
| CC(C)(C)C(=O)NNCc1ccccc1 | – | PBS | 2 h | pH 7.4 | 25 °C | 2% DMSO | 424 µM |
| CN1C(=O)Cc2ccc(F)c(CCNC[C@H]3CN(c4ccc5c(n4)NC(=O)CO5)C(=O)O3)c21 | – | aqueous buffer | – | – | – | – | 90 µM |
| CC[C@@H]1NC(=O)[C@H](CC(C)C)NC(=O)CN(C)C(=O)CNC(=O)[C@@H](CC(C)C)NC(=O)[C@@H](Cc2ccc(O)cc2)NC(=O)CSC[C@@H](C(=O)O)NC(=O)[C@H](C(C)C)NC(=O)[C@H](CC(C)C)NC(=O)[C@H](C)NC(=O)[C@H]([C@@H](C)CC)NC1=O | – | HBSS | – | pH 7.4 | – | – | 138 µM |
| COC1=CC(c2ccc[nH]2)=N/C1=C\c1cc(Cc2ccc(Cl)cc2)c(C)[nH]1.Cl | – | potassium phosphate buffer | 1.5 h | pH 7.4 | room temperature | 100 mM buffer | < 3.13 µM |

Excerpt of the above:
| Compound | method | medium | time | pH | temperature | notes | solubility |
| --- | --- | --- | --- | --- | --- | --- | --- |
| Cc1cccc(C2(C(=O)N3CCC4(CC3)CC(CNS(=O)(=O)N(C)C)CCO4)CCCC2)c1 (stereo not shown) | – | – | – | pH 7.4 | – | – | 140 µM |
| FC(F)(F)[C@@]1(c2ccccc2)COC[C@@H](c2cccnc2)N1 | shake-flask, LC-HRMS | aqueous buffer | 16 h | pH 6.8 | – | – | < 4 µM |
| NC(=O)c1cc(-c2ccsc2)ccc1OCCc1cccc(F)c1 | – | PBS | 30 (unit not given) | pH 7.4 | – | – | < 12 µM |
| CC1(C(=O)N2CCC3(CC2)CC(CNS(C)(=O)=O)CCO3)CCCC1 (stereo not shown) | – | – | – | pH 7.4 | – | – | 110 µM |
